Results gathered from unrelated publications.
Numbered parts are unrelated; each lists some results of a single study.

Series 1
Target: RNA binding protein fox-1 homolog 2, RRM domain, GST-SBP tag (RBFOX2, Homo sapiens, UniProt O43251-10, residues 100-194)
Method: RNA Bind-n-Seq
Molecule type: RNA
Sample: in vitro
Tested at: 365 nM
Notes: natural RNA segment, single round, ends assumed
Baseline: no-protein control
Direction: higher = stronger binding
Shared flanks, not repeated: GGGAGUUCUACAGUCCGACGAUC … UGGAAUUCUCGGGUGCCAA
Target sequence (chain): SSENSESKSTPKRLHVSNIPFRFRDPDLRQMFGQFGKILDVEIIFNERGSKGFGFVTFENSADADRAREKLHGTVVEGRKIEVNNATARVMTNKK
Sequence	RBNS enrichment (R)
UCUUGCCCCUCUGUAAAUCAAGCCAACUGUGACCAUCCAAUGUGCCAUCUUACAGGGAAAAGUUAUAACCACUAUUCCCCUAUAACAUAAUGCUAAUGAUUGUACUUAGU	0.266
CCUUCUCUCUGACAGCCCAUCUUCGUCAGGCCCAUUCCCAGGAUGUCAACUGUGUGGCUUGGAAUCCCAAGGAGCCAGGGCUCCUGGCCUCUUGUAGUGAUGAUGGGGAG	0.461
CGGUCUGCCUCCAGGGAUCCUGGGACCCUGAUGGCGAUCGUCCUGUCAUGCUGGGCCCUUCAUUUGAUCUGGGACAUAGCAUCACAGCAGUCAGGGCACCUGGAUUGUUC	0.374
UGCUGAACUGUCAUAAAAUUUUUUCAACCCUUUAUUGUGAUUUCCAAUGUCUUGAAGUUUUAAGUGUUUUGACCAGUGUGUAAUGUUAAAUUCAGAGGCUACAGUAUAUC	0.599
UCUAUGUUACCCAUCUGUGUCUCCUGUGCAGAAGGAGAGGAAGGGGCAUUAAGAGAUGAAGGGUGAUUAUGUAUUACUUAUCCAUUUCUGAAUAAACAUUUGUUAUUCCU	0.633
UGUCCCUGGCAAGUGCCUGGUAAAGGACACCGAGGCUGCUGAGCUCUUCCAGCAUGGAGGGUACCAUGGCCCGUAGGAGCCUGGGGUUCCUAGCAAACGGGAGGAAACCA	1.09
AUUUCCCAAGCCAAGCAUCCACUUGUCUGUGUCUGGGAAGGGAUGGCCAAGGCCGCUAGGGUCCUUACCCCUCAGGAUCACUCCCCAGCCCUUUCCUCAGGAGGUACCGC	0.267
GGGGGACAAGCGUGGGCACAAUUUCCCCACCAAGACACCCUGAUCUUCAGGCGGGUCUCAGGAGCUUCUAAAAAUCCGCAUGGCUCUCCUGAGAGUGGACAGAGGAGAGG	3.34
GCCUUCCUGUCAUAUUUUAGCCAAAACAACUGGUUAUAUGCCUCCCUUGCAGCAAGCACUACAAUGUAUGUGAUCGUCAAUGUGAAUAGCUUAGAAUACUGCAAAGGAUA	0.497
UUUCCUUCUGACUCUGUUUGGAUUGAGGGGAAGUCCGUCUUGCUGAUGAUGGUGACCGUGAAAGUGAAAUGGAAGGGAUGAGUGAAGAGGUUUUGGUUUGUUUGUUUGUU	3.63
AAUAGCAAAUUCCUUUCAGAAGUCUCUAGCUUUAGUGCUAAAAUACUACUGAGAAAGGAACUAGGUAGUUUGGUGAAUGAAAGAAAACAAAAUUUGAAGAUAUUAUGUAG	0.77
AUGUAGCAGGGUAAAAGAAAAUUCAUUUUCUAACAAAAUACUCACAUUCAUGAUCUACUGUAGGAGAAUAUUUUCUAUGCAUUUAACAUUAUUAAUAUUGGUUUUAACUU	1.82

Series 2
Target: Interferon regulatory factor 7, full length, phosphomimetic (IRF7, Homo sapiens, UniProt Q92985, residues 1-503, S471D/S472D/S475D/S476D/S477D/S483D/S484D/S487D)
Method: protein-binding microarray
Molecule type: double-stranded DNA, one strand shown
Sample: in vitro
Tested at: 2200 nM top
Notes: 60-bp whole probe
Added: salmon DNA 0.4 mg/ml
Baseline: random background probes
Direction: higher = stronger binding
Shared flanks, not repeated: GCCTAGCAC … GTCTTGATTCGCTTGACGCTGCTG
Residues (chain): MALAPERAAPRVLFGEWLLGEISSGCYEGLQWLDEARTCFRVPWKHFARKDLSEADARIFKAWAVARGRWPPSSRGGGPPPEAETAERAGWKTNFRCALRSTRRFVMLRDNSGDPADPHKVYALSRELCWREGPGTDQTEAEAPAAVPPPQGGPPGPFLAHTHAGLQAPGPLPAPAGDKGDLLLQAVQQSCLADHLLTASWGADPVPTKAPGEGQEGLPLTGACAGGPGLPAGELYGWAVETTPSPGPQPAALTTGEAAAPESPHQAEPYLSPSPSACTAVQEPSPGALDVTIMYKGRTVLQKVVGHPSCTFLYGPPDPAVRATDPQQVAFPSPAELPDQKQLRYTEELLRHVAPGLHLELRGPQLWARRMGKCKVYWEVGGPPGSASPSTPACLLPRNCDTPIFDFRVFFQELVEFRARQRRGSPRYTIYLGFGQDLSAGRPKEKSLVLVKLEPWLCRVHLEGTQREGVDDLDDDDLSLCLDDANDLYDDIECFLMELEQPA
Sequence	fitted relative affinity [z-score]
TTAGGACTGGGGACTGGGTTCGTGCTA	-0.835
TTACATATCAGACTGGATTAGTGCTAG	0.576
GGGAGTGTCAATAATGACCACGTGCTA	-0.544
GACGGTAACGGACTGGGGACGTGCTAG	-0.739
TCAGAACTGGGGTATCGATTAGTGCTA	0.12
TTGCGTCTGGGTGTTTTCTAGTGCTAG	1.02
TTAGGTATCGGTTTCGATTAGTGCTAG	5.8
TTAGATTCCAGTTTGGATTAGTGCTAG	0.831
GACGAACTGAGTATCGAGCCGTGCTAG	-0.377
TTAGGTATCGGGACGGGGTTAGTGCTA	0.0833
TTAGGTATGCTTCTCCTTTAGTGCTAG	1.07
TCAATTTTTTTTATTTAACTGTGCTAG	0.722
GGCGATTTCGGGTTTCGAGACGTGCTA	5.25
GACGATTCCAGCTTCGAGACGTGCTAG	0.538
TCAGAAATCTCTTTCCTACTGTGCTAG	0.778
GACGAACTGAGTTTCGAGAGGTGCTAG	1.14
TTAGCACTGGGTCTCGGTTAGTGCTAG	0.114

Series 3
Target: RING finger protein unkempt homolog, zinc fingers 1-6, GST-SBP tag (UNK, Homo sapiens, UniProt Q9C0B0, residues 30-357)
Method: RNA Bind-n-Seq
Molecule type: RNA
Sample: in vitro
Tested at: not given
Notes: RNA with constant flanks, human and mouse sites, ends assumed
Baseline: input RNA pool
Direction: higher = stronger binding
Shared flanks, not repeated: GGGAGUUCUACAGUCCGACGAUC … CAACAGAGGAUUGAGCAUCA
Target sequence (chain): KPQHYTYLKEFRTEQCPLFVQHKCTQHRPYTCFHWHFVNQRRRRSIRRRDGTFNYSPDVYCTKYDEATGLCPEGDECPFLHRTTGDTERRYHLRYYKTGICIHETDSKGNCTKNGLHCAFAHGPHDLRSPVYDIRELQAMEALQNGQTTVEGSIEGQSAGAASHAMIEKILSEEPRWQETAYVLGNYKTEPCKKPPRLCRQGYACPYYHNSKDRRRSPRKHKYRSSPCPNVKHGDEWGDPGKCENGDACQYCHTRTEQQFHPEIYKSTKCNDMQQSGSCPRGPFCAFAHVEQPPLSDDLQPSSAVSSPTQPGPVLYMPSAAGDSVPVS
Sequence	bound/input enrichment [ratio]
CUCAAGAGGCAGUUGCAACAACUGCAAGAAGGUACAUUACAGGAAUAUCAGAAGAGAAUGAAAAAACUAGAUCAGCAGUACAAAGAGAGGAUACGGAAUGCAGAACUCUUCCUCCAGCUG	0.306
UGUGUUAUUCGUUGUUUAGUGAAGAAGAGGGCUCUUAUUGCAGGAGGUGGUGCUCCAGAAAUAGAGUUGGCCCUACGAUUAACUGAAUAUUCACGAACACUGAGUGGUAUGGAAUCCUAC	0.0872
UGAACACAUGACGUCAGAUCAAAGAAAACAGAUCUUCUCCAGAUUGGCAGAAAGUUGAUAUAGGUGGACUUUUUUACAGGUCAGUUGAGGCAAAAAACUAUGGGUUUUUUCAGGUGAACC	0.314
AUUUCUUUGCAAAUGGAAGAGUUUAAUACUGCAAUUUAUUCCAAUGAUGACUUACUUUCUUCUAAGGAAGACAAAAUGAAAGAAAGUGAAACAUUUUCCGAUUCAUCUCCCAUUGAGAUA	0.0868
UCCAAAGAAGUAUUAUCCCAAGGACAACAGCAGGGAGCCCCAAAUGCUGGGGUUAUAACUAAUGCACCUUUGCAGAGACAUUUUAAACCAAAGAAGGUGGAGUGUUUGGAAGUUGAAACU	0.232
GUACUUGCUGUAGGAUUCAAGCUGUCUUUGCACUAGCUCUAAAGAAGAUUUUCUUCUGGUUUUAGAGAACUAAUUUUGUUUUAGCAUUAAACUGUUGAACUUUUUUUUGUACUUAGAAAA	2.57
GGAAACGAAUGAGGAACCACCUCCUCCUGCUGUUCAAGUACAGGGGCCUGGUGCGCAAAGGGAAGAAAAGCAAAAGACGAAAAUGGCUAAAUUUAAGAUCCGUCCAGCCACUGCCUCUGA	0.108
GAGAACAAGCUCUGGUGUCCAUUAGUUCAAGAAAUCCUGUGUUGAAGCAUAAUGUUGCUACAUAAGCCAGAGAAAGGAAGAGCGCUGCCAGGCCUGAUCGUUGGUAGUGGCAUGGAGGAC	0.455
GGUGCUACACGAAUCCCUGCGGUAAAAGAGAAGAUCAGCAAAUUUUUCGGUAAAGAACUUAGUACAACAUUAAAUGCUGAUGAAGCUGUCACUCGAGGCUGUGCAUUGCAGUGUGCCAUC	1.02
GAGUUUUCCCCACCAAGGGGACCAUGCACAUGGUAGAAACAUUAGAUUCUGCAUUGACAGUAGCCUUUCCUUGGCCCGGGCCUGUGGUGGGAAGACGGGCAACAAGUAUACCCCACCAGG	0.226
CAAGUCUACAAAAGCUCUUCAGAGAAGUAAGAAUAAUGAAGAUUUUAAAUCACCCAAACAUAGUGAAGUUGUUCGAAGUCAUUGAAACGGAAAAAACUCUCUACUUAAUCAUGGAAUAUG	0.368

Series 4
Target: Histone acetyltransferase KAT6A, both winged helices, GST fusion (KAT6A, Homo sapiens, UniProt Q92794, residues 1-181)
Method: protein binding microarray
Molecule type: double-stranded DNA, one strand shown
Sample: in vitro
Tested at: not given
Notes: 8-mer, flanks averaged, mean of 2 arrays, mostly near background
Baseline: not given
Direction: higher = stronger binding
Construct (chain): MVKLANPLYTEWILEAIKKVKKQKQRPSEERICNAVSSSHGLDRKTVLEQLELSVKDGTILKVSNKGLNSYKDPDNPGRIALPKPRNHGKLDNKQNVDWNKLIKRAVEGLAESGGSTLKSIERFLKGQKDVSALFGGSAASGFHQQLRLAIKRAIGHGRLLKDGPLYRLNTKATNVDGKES
Sequence	E-score
CGAATGAA	0.06
GTCGCCCA	-0.0168
CCGGGGAA	0.237
GTCCGACA	0.165
ACAATTCA	0.0395
ACGTTGTG	-0.0182
ACGTTATG	0.0243
AAGATCAC	-0.0164
AATTGCAG	-0.083
GTCAGAAA	-0.205
CATCGGCC	0.22
CGCTGGTC	0.163
ACATCAAG	-0.0133
AATGCTAC	-0.0123
ATGCATTG	-0.187
CGACTTAC	0.0161

Series 5
Target: Prothrombin, mature alpha-thrombin (F2, Homo sapiens, UniProt P00734)
Method: aptamer microarray, sandwich
Molecule type: DNA with 2'F-ANA
Sample: in vitro
Tested at: 200 nM
Notes: whole 15-mer aptamer, many near background
Added: Cy3 exosite-II aptamer, 400 nM
Direction: higher = stronger binding
Sequence: GGTTGGTGTGGTTGG
Modification	mean fluorescence intensity [a.u.]
2'F-ANA at 1 3 4 6 9 10 12	82.8
2'F-ANA at 1 3 5 11 12	109
2'F-ANA at 3 6 7 8 10 11 12 15	508
2'F-ANA at 7 10 12 13	245
2'F-ANA at 5 9 10 12	54.8
2'F-ANA at 2 3 4 5 6 7 8 10 13	49
2'F-ANA at 4 5 9 12 13	84.2
2'F-ANA at 4 6 7 8 10 11 14	76
2'F-ANA at 2 3 5 10 11 12 14	55.9
2'F-ANA at 4 6 7 9 12	534
2'F-ANA at 1 2 4 6 7 8 10 11 13 15	52.7
2'F-ANA at 2 3 4 7 8 10 11	289
2'F-ANA at 1 2 4 6 8 13 14	48.8
2'F-ANA at 1 3 5 7 9 10 12 13 14 15	55.1
2'F-ANA at 4 5 9 10 11 14	43.1
2'F-ANA at 2 4 5 8 13 14	47.1
2'F-ANA at 1 2 4 5 6 7 8 10 11 13 15	55.5
2'F-ANA at 1 3 6 7 10 11 14	56.6
2'F-ANA at 2 5 6 9 12 15	140
2'F-ANA at 2 3 7 10 12 13	483
2'F-ANA at 1 5 6 9 14	45.2
2'F-ANA at 1 2 4 5 7 8 10 11 12 13	51.7
2'F-ANA at 3 7 9 10 13 14	419
2'F-ANA at 1 2 3 4 5 6 7 10 12 14 15	51.8
2'F-ANA at 1 3 6 7 8 13 14 15	141

For quick reference, copied from above (series 5):
Modification	mean fluorescence intensity [a.u.]
2'F-ANA at 3 6 7 8 10 11 12 15	508
2'F-ANA at 7 10 12 13	245
2'F-ANA at 5 9 10 12	54.8
2'F-ANA at 2 3 4 5 6 7 8 10 13	49
2'F-ANA at 4 5 9 12 13	84.2
2'F-ANA at 4 6 7 8 10 11 14	76
2'F-ANA at 2 3 5 10 11 12 14	55.9
2'F-ANA at 4 6 7 9 12	534
2'F-ANA at 1 2 4 6 7 8 10 11 13 15	52.7
2'F-ANA at 2 3 4 7 8 10 11	289
2'F-ANA at 1 2 4 6 8 13 14	48.8
